Measured values pooled from the literature.
Compare with care: the assays were run in different laboratories. ± gives the spread as reported.
SLC22A2: Solute carrier family 22 member 2 (SLC22A2, Homo sapiens, UniProt O15244)
UniProt O15244, sequence (whole entry, looked up): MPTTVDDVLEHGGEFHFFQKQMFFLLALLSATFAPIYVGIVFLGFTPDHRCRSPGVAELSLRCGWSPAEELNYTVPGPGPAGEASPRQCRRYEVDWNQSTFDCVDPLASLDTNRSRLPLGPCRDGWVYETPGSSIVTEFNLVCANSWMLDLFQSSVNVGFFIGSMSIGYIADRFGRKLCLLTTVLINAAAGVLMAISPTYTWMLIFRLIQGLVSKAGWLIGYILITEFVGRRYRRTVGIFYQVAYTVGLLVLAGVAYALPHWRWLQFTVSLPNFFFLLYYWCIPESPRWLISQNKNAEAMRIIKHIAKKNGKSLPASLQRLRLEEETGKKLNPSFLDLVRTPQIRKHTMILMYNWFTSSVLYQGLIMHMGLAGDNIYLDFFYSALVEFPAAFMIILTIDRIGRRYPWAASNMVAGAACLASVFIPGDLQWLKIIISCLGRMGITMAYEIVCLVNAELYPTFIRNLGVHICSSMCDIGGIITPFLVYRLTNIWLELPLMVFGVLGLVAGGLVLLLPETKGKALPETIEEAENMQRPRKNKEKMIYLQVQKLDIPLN
ALB: Albumin (ALB, Homo sapiens, UniProt P02768)
NR1I2: Nuclear receptor subfamily 1 group I member 2 (NR1I2, Homo sapiens, UniProt O75469)
UniProt O75469, sequence (whole entry, looked up): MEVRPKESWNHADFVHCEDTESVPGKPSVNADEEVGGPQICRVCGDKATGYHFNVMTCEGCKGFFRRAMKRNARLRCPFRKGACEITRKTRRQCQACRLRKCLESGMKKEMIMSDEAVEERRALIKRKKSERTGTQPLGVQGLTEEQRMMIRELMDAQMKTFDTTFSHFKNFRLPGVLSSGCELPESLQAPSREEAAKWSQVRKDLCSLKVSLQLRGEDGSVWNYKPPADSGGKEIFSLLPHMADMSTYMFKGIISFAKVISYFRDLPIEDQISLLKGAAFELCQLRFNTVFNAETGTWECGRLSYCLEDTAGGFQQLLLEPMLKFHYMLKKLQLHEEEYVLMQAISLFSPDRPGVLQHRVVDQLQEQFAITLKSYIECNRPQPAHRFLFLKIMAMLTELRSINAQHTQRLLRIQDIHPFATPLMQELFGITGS
UniProt P08183, sequence (whole entry, looked up): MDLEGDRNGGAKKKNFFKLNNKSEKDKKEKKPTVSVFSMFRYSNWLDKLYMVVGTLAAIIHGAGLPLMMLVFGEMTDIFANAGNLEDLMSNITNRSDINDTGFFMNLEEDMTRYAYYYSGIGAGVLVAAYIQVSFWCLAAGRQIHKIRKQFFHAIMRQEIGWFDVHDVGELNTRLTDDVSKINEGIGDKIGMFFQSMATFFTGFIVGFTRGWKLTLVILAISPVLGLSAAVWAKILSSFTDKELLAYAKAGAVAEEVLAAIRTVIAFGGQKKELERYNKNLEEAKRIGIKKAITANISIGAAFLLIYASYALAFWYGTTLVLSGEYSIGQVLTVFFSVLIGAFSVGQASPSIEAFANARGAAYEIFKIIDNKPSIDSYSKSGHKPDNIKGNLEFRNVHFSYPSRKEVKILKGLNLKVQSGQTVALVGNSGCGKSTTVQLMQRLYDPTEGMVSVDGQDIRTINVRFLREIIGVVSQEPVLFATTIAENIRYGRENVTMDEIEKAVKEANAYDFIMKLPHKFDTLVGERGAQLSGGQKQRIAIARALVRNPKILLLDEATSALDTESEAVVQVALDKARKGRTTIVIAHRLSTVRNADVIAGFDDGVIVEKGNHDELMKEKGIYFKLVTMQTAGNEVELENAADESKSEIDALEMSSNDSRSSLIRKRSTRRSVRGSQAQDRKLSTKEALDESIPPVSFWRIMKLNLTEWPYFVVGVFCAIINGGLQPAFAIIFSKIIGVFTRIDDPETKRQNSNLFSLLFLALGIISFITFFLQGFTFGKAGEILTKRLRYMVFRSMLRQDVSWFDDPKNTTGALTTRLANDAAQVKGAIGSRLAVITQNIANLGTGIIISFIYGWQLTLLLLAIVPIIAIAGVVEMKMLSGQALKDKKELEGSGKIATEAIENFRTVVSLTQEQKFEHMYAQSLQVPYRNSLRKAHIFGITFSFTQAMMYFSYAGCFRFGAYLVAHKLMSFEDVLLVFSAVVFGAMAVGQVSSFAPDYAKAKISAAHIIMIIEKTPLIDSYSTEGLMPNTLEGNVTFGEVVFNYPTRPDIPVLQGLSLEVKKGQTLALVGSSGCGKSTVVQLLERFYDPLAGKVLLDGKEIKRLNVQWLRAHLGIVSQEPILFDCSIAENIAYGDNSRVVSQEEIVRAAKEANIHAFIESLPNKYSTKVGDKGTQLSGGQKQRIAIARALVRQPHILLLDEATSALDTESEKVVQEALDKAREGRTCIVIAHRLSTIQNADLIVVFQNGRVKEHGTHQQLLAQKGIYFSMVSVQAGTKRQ
UniProt Q59SU1, sequence (whole entry, looked up): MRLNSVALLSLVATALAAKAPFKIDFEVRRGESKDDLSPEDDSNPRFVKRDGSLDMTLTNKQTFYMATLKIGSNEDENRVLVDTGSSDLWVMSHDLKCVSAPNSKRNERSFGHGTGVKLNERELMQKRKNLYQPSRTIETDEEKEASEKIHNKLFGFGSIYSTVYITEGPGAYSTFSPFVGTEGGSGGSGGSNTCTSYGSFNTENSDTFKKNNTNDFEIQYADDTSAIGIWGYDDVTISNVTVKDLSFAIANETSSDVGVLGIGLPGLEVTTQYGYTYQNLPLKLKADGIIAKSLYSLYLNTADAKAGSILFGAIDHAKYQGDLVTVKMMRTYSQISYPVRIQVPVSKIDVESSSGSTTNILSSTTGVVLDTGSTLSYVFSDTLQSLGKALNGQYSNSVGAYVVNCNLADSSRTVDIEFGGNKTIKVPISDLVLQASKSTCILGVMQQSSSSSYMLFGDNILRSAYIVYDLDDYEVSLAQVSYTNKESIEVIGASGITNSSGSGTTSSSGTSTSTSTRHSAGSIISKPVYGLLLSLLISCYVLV
UniProt P07724, sequence (whole entry, looked up): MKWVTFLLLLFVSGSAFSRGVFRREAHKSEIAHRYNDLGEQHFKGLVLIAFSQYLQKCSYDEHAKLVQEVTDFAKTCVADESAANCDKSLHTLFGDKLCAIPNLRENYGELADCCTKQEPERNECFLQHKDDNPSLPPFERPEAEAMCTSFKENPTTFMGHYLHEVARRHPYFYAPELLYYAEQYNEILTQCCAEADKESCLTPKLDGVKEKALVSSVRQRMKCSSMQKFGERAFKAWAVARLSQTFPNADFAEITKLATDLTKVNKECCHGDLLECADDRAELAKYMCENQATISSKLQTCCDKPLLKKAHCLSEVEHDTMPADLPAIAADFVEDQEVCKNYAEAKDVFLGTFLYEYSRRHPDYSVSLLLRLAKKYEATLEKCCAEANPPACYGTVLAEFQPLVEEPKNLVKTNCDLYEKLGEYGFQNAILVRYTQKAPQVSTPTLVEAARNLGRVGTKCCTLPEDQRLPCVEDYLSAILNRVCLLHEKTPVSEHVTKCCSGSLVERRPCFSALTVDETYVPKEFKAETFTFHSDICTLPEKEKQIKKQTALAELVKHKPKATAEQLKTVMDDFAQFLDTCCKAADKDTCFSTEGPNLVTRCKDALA

| SMILES | target | assay | test system | setting | how to read | endpoint | value |
| --- | --- | --- | --- | --- | --- | --- | --- |
| COc1cc2nc(N3CCN(C(=O)c4ccco4)CC3)nc(N)c2cc1OC | SLC22A2 | transport, inhibitor |  | 100 µM |  | inhibition | 37.7% |
| OC[C@H]1O[C@@H](Oc2cc3c(O)cc(O)cc3[o+]c2-c2cc(O)c(O)c(O)c2)[C@H](O)[C@@H](O)[C@@H]1O | ALB | binding, fluorescence quenching |  | pH 7, 40 °C, HSA 2 µM |  | Kd | 23.2 ± 2.73 µM |
| CCOC(=O)C1=C[C@@H](OC(CC)CC)[C@H](NC(C)=O)[C@@H](N)C1 | SLC22A2 | transport, inhibitor | transiently transfected cells | 100 µM, 10 (unit not given), added: metformin |  | inhibition | 12.7% |
| CC1(C)C(C=C(Cl)Cl)C1C(=O)OC(C#N)c1ccc(F)c(Oc2ccccc2)c1 (stereo not drawn) | human CYP3A4 | IVIVE from expressed enzymes | human, liver, in vivo scaled | 0.1 µM, age-specific |  | enzyme contribution to CLint | 1.12% |
| CC[C@H](C)[C@H](NC(=O)[C@H](CCCCN)NC(=O)[C@H](CCC(=O)O)NC(=O)[C@H](CCCCN)NC(=O)[C@H](CO)NC(=O)[C@H](CCCCN)NC(=O)[C@H](CCCNC(=N)N)NC(=O)[C@H](Cc1ccccc1)NC(=O)[C@H](Cc1ccccc1)NC(=O)[C@H](CC(=O)O)NC(=O)CNC(=O)[C@H](CC(C)C)NC(=O)[C@@H](N)CC(C)C)C(=O)NCC(=O)N[C@@H](CCCCN)C(=O)N[C@@H](CCC(=O)O)C(=O)N[C@@H](Cc1ccccc1)C(=O)N[C@@H](CCCCN)C(=O)N[C@@H](CCCNC(=N)N)C(=O)N[C@H](C(=O)N[C@H](C(=O)N[C@@H](CCC(N)=O)C(=O)N[C@@H](CCCNC(=N)N)C(=O)N[C@H](C(=O)N[C@@H](CCCCN)C(=O)N[C@@H](CC(=O)O)C(=O)N[C@@H](Cc1ccccc1)C(=O)N[C@@H](CC(C)C)C(=O)N[C@@H](CCCNC(=N)N)C(=O)N[C@@H](CC(N)=O)C(=O)N[C@@H](CC(C)C)C(=O)N[C@H](C(=O)N1CCC[C@H]1C(=O)N[C@@H](CCCNC(=N)N)C(=O)N[C@H](C(=O)N[C@@H](CCC(=O)O)C(=O)N[C@@H](CO)C(=O)O)[C@@H](C)O)C(C)C)[C@@H](C)CC)C(C)C)[C@@H](C)CC | trypsin | LC-MS |  | 40 µM, 120 min, pH 7.5, 37 °C | relative to: 0 h | remaining intact peptide | 2.07% |
| CO/N=C1\C[C@]2(C[C@@H]3C[C@@H](C/C=C(\C)C[C@@H](C)/C=C/C=C4\CO[C@@H]5[C@H](O)C(C)=C[C@@H](C(=O)O3)[C@]45O)O2)O[C@H](/C(C)=C/C(C)C)[C@H]1C | NR1I2 |  |  | concentration not given |  | activity | inactive |
| CC1(C)C(/C=C(\Cl)C(F)(F)F)C1C(=O)OC(C#N)c1cccc(Oc2ccccc2)c1 (stereo not drawn) | human CYP2C19 | IVIVE from expressed enzymes | human, liver, in vivo scaled | age-specific |  | enzyme contribution to CLint | 0.49% |
| NC(=O)c1nc(F)c[nH]c1=O | SLC22A2 | transport, inhibitor | transiently transfected cells | 100 µM, 10 (unit not given), added: metformin |  | inhibition | -10.1% |
| C[C@H](NC(=O)[C@H](Cc1cnc[nH]1)NC(=O)[C@H](CO)NC(=O)[C@@H](N)CC(=O)O)C(=O)N[C@@H](CCCCN)C(=O)N[C@@H](CCCNC(=N)N)C(=O)N[C@@H](Cc1cnc[nH]1)C(=O)N[C@@H](Cc1cnc[nH]1)C(=O)NCC(=O)N[C@@H](Cc1ccc(O)cc1)C(=O)N[C@@H](CCCCN)C(=O)N[C@@H](CCCNC(=N)N)C(=O)N[C@@H](CCCCN)C(=O)N[C@@H](Cc1ccccc1)C(=O)N[C@@H](Cc1cnc[nH]1)C(=O)N[C@@H](CCC(=O)O)C(=O)N[C@@H](CCCCN)C(=O)N[C@@H](Cc1cnc[nH]1)C(=O)N[C@@H](Cc1cnc[nH]1)C(=O)N[C@@H](CO)C(=O)N[C@@H](Cc1cnc[nH]1)C(=O)N[C@@H](CCCNC(=N)N)C(=O)NCC(=O)N[C@@H](Cc1ccc(O)cc1)C(=O)O | Secreted aspartic protease 9 (SAP9, Candida albicans, UniProt Q59SU1) | proteolytic degradation, gel densitometry |  | 150 µg/mL, 2 h, pH 7.4, added: SAP9 3.1 µg/mL |  | intact peptide remaining | 41.5% |
| CC[C@H](C)[C@H](NC(=O)[C@H](CCCCN)NC(=O)[C@H](CCCCN)NC(=O)CNC(=O)[C@H](CCCCN)NC(=O)[C@H](CC(C)C)NC(=O)[C@H](CCCCN)NC(=O)[C@H](CCCNC(=N)N)NC(=O)[C@@H](NC(=O)[C@H](CC(C)C)NC(=O)[C@H](CCCNC(=N)N)NC(=O)[C@@H](N)CCCNC(=N)N)[C@@H](C)CC)C(=O)N[C@@H](Cc1ccc(O)cc1)C(=O)N[C@@H](CC(C)C)C(=O)N[C@@H](Cc1ccc(O)cc1)C(=O)N[C@@H](Cc1ccccc1)C(=O)N[C@@H](CCCCN)C(=O)N[C@@H](CC(C)C)C(=O)N[C@@H](CCC(N)=O)C(=O)N[C@@H](CC(C)C)C(=O)N[C@@H](CC(C)C)C(=O)N[C@@H](CCCCN)C(=O)N[C@@H](CCCCN)C(N)=O | trypsin | substrate, HPLC |  | 150 µM, pH 7.4, 37 °C, added: trypsin 0.06 µg/mL |  | time to near-complete degradation | 18 to 20 h |
| O=C1c2ccccc2C(=O)C1C(=O)C(c1ccccc1)c1ccccc1 | NR1I2 |  |  | concentration not given |  | activity | inactive |
| Clc1ccc(Cl)c(-c2ccccc2Cl)c1 | NR1I2 | agonist, refers to: CYP3A4 | differentiated HepaRG | concentration not given, 24 h | relative to: maximum rifampicin induction | mRNA level | < 20% |
| COc1cc(-c2[o+]c3cc(O)cc(O)c3cc2O[C@@H]2O[C@H](CO)[C@@H](O)[C@H](O)[C@H]2O)cc(OC)c1O | ALB | binding, fluorescence quenching |  | pH 7, 40 °C, HSA 2 µM |  | Kd | 104 ± 8.04 µM |
| Cc1oncc1C(=O)Nc1ccc(C(F)(F)F)cc1 | SLC22A2 | transport, inhibitor | transiently transfected cells | 100 µM, 10 (unit not given), added: metformin |  | inhibition | 5.9% |
| CC(C)=CC1C(C(=O)OC(C#N)c2cccc(Oc3ccccc3)c2)C1(C)C (stereo not drawn) | human CYP2C19 | IVIVE from expressed enzymes | human, liver, in vivo scaled | age-specific |  | enzyme contribution to CLint | 0.89% |
| O=C1c2ccccc2C(=O)C1C(=O)C(c1ccccc1)c1ccc(Cl)cc1 (stereo not drawn) | NR1I2 |  |  | concentration not given |  | activity | inactive |
| O=C(Nc1c2c(cc3c1CCC3)CCC2)NS(=O)(=O)/C=C/c1nccs1 | human CYP3A4 |  | human liver microsomes | 10 µM, pH 7.4, added: midazolam |  | inhibition | < 0% |
| CC1(C)SSC[C@H](NC(=O)[C@H](Cc2ccccc2)NC(=O)[C@@H](NC(=O)[C@H](Cc2ccccc2)NC(=O)C2(NC(=O)[C@H](Cc3ccc4ccccc4c3)NC(=O)[C@H](CCCCN)NC(=O)CCCCCNC(=O)[C@@H](N)CCCCNC(=O)CCCC[C@@H]3SC[C@@H]4NC(=O)N[C@@H]43)CCNCC2)C2CCCC2)C(=O)N2C[C@H](O)C[C@H]2C(=O)N[C@@H](Cc2ccccc2)C(=O)N[C@@H](Cc2ccc(O)cc2)C(=O)N[C@@H](Cc2ccc(O)cc2)C(=O)N[C@@H](CCCCN)C(=O)N2C[C@H](O)C[C@H]2C(=O)N[C@@H]1C(=O)N[C@@H](CCCCN)C(N)=O | Chymotrypsinogen A (Bos taurus, UniProt P00766) | substrate, LC-MS |  | added: Chymotrypsinogen A 0.5 mg/mL |  | t1/2 | 3.33 h |
| CO[C@H]1C[C@H](O[C@H]2[C@H](C)O[C@@H](O[C@@H]3/C(C)=C/C[C@@H]4C[C@@H](C[C@]5(C=C[C@H](C)[C@@H](C6CCCCC6)O5)O4)OC(=O)[C@@H]4C=C(C)[C@@H](O)[C@H]5OC/C(=C\C=C\[C@@H]3C)[C@]54O)C[C@@H]2OC)O[C@@H](C)[C@@H]1O | NR1I2 |  |  | concentration not given |  | activity | inactive |
| CC(C)CC(=O)OC[C@H]1O[C@@](C#N)(c2ccc3c(N)ncnn23)[C@H](O)[C@@H]1O | ATP-dependent translocase ABCB1 (ABCB1, Homo sapiens, UniProt P08183) | apical to basolateral transport | Caco-2 | 9 µM, 2 h, added: zosuquidar 25 µM |  | recovery | 44.9% |
| CC(C)N(CCc1c[nH]c2cccc(OC(=O)CCCC(=O)O)c12)C(C)C.Cl | ALB | substrate, refers to: 4-hydroxytryptamine | human serum 4% |  |  | time to complete conversion | ≤ 30 min |
| CC1(C)NC(=O)N(c2cc(Cl)c(F)c(C(F)(F)F)c2)C1=O | ALB |  |  |  |  | unbound fraction | 0.15 |
| CCCCc1nc(Cl)c(CO)n1Cc1ccc(-c2ccccc2-c2nn[nH]n2)cc1 | SLC22A2 | transport, inhibitor | transiently transfected cells | 100 µM, 10 (unit not given), added: metformin |  | inhibition | -12.9% |
| CC1(C)[C@H](C=C(Cl)Cl)[C@H]1C(=O)OCc1cccc(Oc2ccccc2)c1 | human CYP2C19 | IVIVE from expressed enzymes | human, liver, in vivo scaled | 0.1 µM, age-specific |  | enzyme contribution to CLint | 0.32% |
| CCN(CC)CCCC(C)Nc1ccnc2cc(Cl)ccc12 (stereo not drawn) | SLC22A2 | transport, inhibitor | transiently transfected cells | 100 µM, 10 (unit not given), added: metformin |  | inhibition | 63.6% |
| Clc1ccc(-c2ccccc2Cl)cc1 | NR1I2 | agonist, refers to: CYP3A4 | differentiated HepaRG | concentration not given, 24 h | relative to: maximum rifampicin induction | mRNA level | < 20% |
| CCN(CCO)CCCC(C)Nc1ccnc2cc(Cl)ccc12 (stereo not drawn) | SLC22A2 | transport, inhibitor | transiently transfected cells | 100 µM, 10 (unit not given), added: metformin |  | inhibition | 30.3% |
| N#Cc1ccc([C@H]2CCc3cncn32)c(F)c1 | CYP3A4/5 (human) | inhibitor, refers to: midazolam 1'-hydroxylation | pooled human liver microsomes | pH 7.4, added: midazolam 1 µM |  | IC50 | 6.5 µM |
| CCCCCCCCc1ccc(CCC(N)(CO)CO)cc1 | SLC22A2 | transport, inhibitor | transiently transfected cells | 100 µM, 10 (unit not given), added: metformin |  | inhibition | -2.5% |
| CCOc1ccc(-c2nc3ccc(-c4nc5ccc(N6CCN(C)CC6)cc5[nH]4)cc3[nH]2)cc1 | Albumin (Mus musculus, UniProt P07724) | binding, fluorescence titration | PBS | 1 h |  | Kd | 4 ± 7 µM |

Some of these lines once more:
| SMILES | target | assay | test system | setting | how to read | endpoint | value |
| --- | --- | --- | --- | --- | --- | --- | --- |
| CC(C)=CC1C(C(=O)OC(C#N)c2cccc(Oc3ccccc3)c2)C1(C)C (stereo not drawn) | human CYP2C19 | IVIVE from expressed enzymes | human, liver, in vivo scaled | age-specific |  | enzyme contribution to CLint | 0.89% |
| O=C1c2ccccc2C(=O)C1C(=O)C(c1ccccc1)c1ccc(Cl)cc1 (stereo not drawn) | NR1I2 |  |  | concentration not given |  | activity | inactive |
| O=C(Nc1c2c(cc3c1CCC3)CCC2)NS(=O)(=O)/C=C/c1nccs1 | human CYP3A4 |  | human liver microsomes | 10 µM, pH 7.4, added: midazolam |  | inhibition | < 0% |
| CC1(C)SSC[C@H](NC(=O)[C@H](Cc2ccccc2)NC(=O)[C@@H](NC(=O)[C@H](Cc2ccccc2)NC(=O)C2(NC(=O)[C@H](Cc3ccc4ccccc4c3)NC(=O)[C@H](CCCCN)NC(=O)CCCCCNC(=O)[C@@H](N)CCCCNC(=O)CCCC[C@@H]3SC[C@@H]4NC(=O)N[C@@H]43)CCNCC2)C2CCCC2)C(=O)N2C[C@H](O)C[C@H]2C(=O)N[C@@H](Cc2ccccc2)C(=O)N[C@@H](Cc2ccc(O)cc2)C(=O)N[C@@H](Cc2ccc(O)cc2)C(=O)N[C@@H](CCCCN)C(=O)N2C[C@H](O)C[C@H]2C(=O)N[C@@H]1C(=O)N[C@@H](CCCCN)C(N)=O | Chymotrypsinogen A (Bos taurus, UniProt P00766) | substrate, LC-MS |  | added: Chymotrypsinogen A 0.5 mg/mL |  | t1/2 | 3.33 h |
